Experimental data from different studies.
Compare with care: the assays were run in different laboratories. Values joined by “and” are separate records of one study, mostly repeats; a detail may differ. Numbers after ± are the reported error.
Cell line: MDCK

| SMILES | assay | conditions | endpoint | value |
| --- | --- | --- | --- | --- |
| Cn1cc(-c2cccc(N3CCc4c(sc5c4CCCC5)C3=O)c2CO)cc(Nc2ccncn2)c1=O | – | 10 µM, 3 h | apparent permeability B-A | 13.2 ×10⁻⁶ cm/s |
| NC(=O)c1ncn([C@@H]2O[C@H](CO)[C@@H](O)[C@H]2O)n1 | – | – | CC50 | > 1000 µg/mL |
| CC(=O)Nc1ccc(O)cc1 | permeability basolateral to apical | 1 µM, 90 min, pH 6.5 apical to 7.4 basolateral | Papp | 8.98 ×10⁻⁶ cm/s and 15.2 ×10⁻⁶ cm/s |
| Cn1cc(-c2cccc(N3CCn4c(cc5c4CCCC5)C3=O)c2CO)cc(Nc2ccncn2)c1=O | – | 10 µM, 3 h | apparent permeability B-A | 19.1 ×10⁻⁶ cm/s |
| C[C@@H](c1ncncc1F)[C@](O)(Cn1cncn1)c1ccc(F)cc1F | permeability basolateral to apical | 1 µM, 90 min, pH 6.5 apical to 7.4 basolateral | Papp | 57.6 ×10⁻⁶ cm/s and 58.2 ×10⁻⁶ cm/s |
| CC(=O)N[C@H]1[C@H]([C@H](O)[C@H](O)CO)OC(C(=O)O)=C[C@@H]1N=C(N)N | cell morphology | – | minimum cytotoxic concentration | > 100 µM |
| C[C@@H]1COCCN1c1nc(-c2nnc(N)s2)nc2c1C[C@@H]1COCCN21 | – | 1 µM, 20 (unit not given) | Papp A to B | 12.2 ×10⁻⁶ cm/s |
| CC(C)n1nccc1-c1ncccc1COc1cccc(O)c1C=O | – | 1 µM, 90 min, pH 6.5 apical, 7.4 basolateral | Papp A to B | 41.5 ×10⁻⁶ cm/s and 38.4 ×10⁻⁶ cm/s |
| C[C@@H]1COCCN1c1nc(-c2cnc(N)c(C(F)(F)F)c2)nc2c1C[C@@H]1COCCN21 | – | 1 µM, 20 (unit not given) | Papp A to B | 109 ×10⁻⁶ cm/s |
| Cc1c(-c2cc(Nc3ccncn3)c(=O)n(C)c2)cccc1N1CCc2c(sc3c2CCCC3)C1=O | – | 10 µM, 3 h | apparent permeability B-A | 10.7 ×10⁻⁶ cm/s |
| NC12CC3CC(CC(C3)C1)C2 | cell morphology | – | minimum cytotoxic concentration | > 100 µM |
| Cn1cc(-c2cccc(N3CCc4cc(C(C)(C)C)ccc4C3=O)c2CO)cc(Nc2ccncn2)c1=O | – | 10 µM, 3 h | apparent permeability A-B | 1.5 ×10⁻⁶ cm/s |
| C[C@@H]1COCCN1c1nc(-c2cnc(N)cn2)nc2c1C[C@@H]1COCCN21 | – | 1 µM, 20 (unit not given) | Papp B to A | 68.7 ×10⁻⁶ cm/s |
| N[C@@H](CC(=O)N1CCn2c(nnc2C(F)(F)F)C1)Cc1cc(F)c(F)cc1F | – | – | Papp | 4.75 ×10⁻⁶ cm/s |
| Cn1cc(-c2cccc(N3CCOc4cc(C(C)(C)C)ccc4C3=O)c2CO)cc(Nc2ccncn2)c1=O | – | 10 µM, 3 h | apparent permeability B-A | 5.9 ×10⁻⁶ cm/s |
| CCn1c(=O)c2c(nc(/C=C/c3ccc(OC)c(OC)c3)n2C)n(CC)c1=O | – | 1 µM, 90 min, pH 7.4 apical, 7.4 basolateral, apical to basolateral | mass recovery | 105 ± 17% |
| OC[C@@H](O)[C@@H](O)[C@H](O)[C@H](O)CO | permeability | – | Papp | 1.51 ± 0.267 ×10⁻⁶ cm/s |
| Nc1cc(C(F)(F)F)c(-c2nc(N3CCOCC3)nc(N3CCOCC3)n2)cn1 | – | 1 µM, 20 (unit not given) | Papp A to B | 179 ×10⁻⁶ cm/s |
| CC(=O)N[C@@H](CS)C(=O)O | – | – | Papp | 134 ×10⁻⁶ cm/s |

Excerpt of the above:
| SMILES | assay | conditions | endpoint | value |
| --- | --- | --- | --- | --- |
| CCn1c(=O)c2c(nc(/C=C/c3ccc(OC)c(OC)c3)n2C)n(CC)c1=O | – | 1 µM, 90 min, pH 7.4 apical, 7.4 basolateral, apical to basolateral | mass recovery | 105 ± 17% |
| OC[C@@H](O)[C@@H](O)[C@H](O)[C@H](O)CO | permeability | – | Papp | 1.51 ± 0.267 ×10⁻⁶ cm/s |
